Measured values collected from several papers.
Each numbered part is a random draw from the data of one study; scales do not carry over between parts. ± marks the error that the study gave.
UniProt Q02779, sequence (whole entry, looked up): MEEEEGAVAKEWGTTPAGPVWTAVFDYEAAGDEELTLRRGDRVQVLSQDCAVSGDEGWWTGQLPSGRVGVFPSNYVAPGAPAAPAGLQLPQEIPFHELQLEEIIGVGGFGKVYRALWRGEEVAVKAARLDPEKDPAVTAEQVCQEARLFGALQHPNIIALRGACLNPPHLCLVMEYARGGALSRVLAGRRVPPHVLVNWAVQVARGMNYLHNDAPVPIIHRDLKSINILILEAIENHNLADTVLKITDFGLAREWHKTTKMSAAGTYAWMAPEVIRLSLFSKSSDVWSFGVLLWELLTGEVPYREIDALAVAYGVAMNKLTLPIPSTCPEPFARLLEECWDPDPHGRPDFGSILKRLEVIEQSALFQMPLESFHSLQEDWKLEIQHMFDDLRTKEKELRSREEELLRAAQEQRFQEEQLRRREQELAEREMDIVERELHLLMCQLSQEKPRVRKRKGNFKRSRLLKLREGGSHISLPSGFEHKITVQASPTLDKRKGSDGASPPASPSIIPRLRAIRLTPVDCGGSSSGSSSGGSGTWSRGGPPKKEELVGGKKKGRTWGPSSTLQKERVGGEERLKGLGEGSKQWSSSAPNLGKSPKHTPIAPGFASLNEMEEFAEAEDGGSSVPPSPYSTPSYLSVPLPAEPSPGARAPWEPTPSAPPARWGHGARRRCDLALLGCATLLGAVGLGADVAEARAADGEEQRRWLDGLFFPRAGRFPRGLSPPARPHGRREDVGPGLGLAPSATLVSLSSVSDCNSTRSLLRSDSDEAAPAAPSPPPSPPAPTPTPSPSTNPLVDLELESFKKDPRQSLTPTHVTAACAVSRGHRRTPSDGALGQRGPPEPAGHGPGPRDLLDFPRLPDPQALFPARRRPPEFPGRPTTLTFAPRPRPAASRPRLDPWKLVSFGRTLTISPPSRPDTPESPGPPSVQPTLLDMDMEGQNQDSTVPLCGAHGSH
UniProt Q8N568, sequence (whole entry, looked up): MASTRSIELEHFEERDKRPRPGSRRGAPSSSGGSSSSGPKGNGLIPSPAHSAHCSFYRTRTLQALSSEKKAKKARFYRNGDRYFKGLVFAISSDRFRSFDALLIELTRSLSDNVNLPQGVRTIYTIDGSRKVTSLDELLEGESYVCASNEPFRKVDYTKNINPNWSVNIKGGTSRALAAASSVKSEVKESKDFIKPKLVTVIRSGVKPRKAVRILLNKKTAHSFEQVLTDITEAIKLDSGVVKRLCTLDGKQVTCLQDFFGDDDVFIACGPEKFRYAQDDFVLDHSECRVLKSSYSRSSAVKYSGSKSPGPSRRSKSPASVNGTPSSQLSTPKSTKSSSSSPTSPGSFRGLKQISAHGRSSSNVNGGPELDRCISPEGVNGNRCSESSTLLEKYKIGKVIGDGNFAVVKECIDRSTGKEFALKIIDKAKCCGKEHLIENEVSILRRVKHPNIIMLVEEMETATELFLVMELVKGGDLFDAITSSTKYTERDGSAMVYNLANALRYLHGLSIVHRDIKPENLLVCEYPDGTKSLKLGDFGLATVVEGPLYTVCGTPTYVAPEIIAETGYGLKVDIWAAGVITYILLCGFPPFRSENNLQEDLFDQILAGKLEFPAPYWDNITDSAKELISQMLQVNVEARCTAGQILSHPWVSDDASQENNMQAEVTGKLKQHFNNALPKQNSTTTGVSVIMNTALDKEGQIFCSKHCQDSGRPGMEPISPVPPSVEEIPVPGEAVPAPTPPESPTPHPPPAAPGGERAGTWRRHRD
UniProt P06493, sequence (whole entry, looked up): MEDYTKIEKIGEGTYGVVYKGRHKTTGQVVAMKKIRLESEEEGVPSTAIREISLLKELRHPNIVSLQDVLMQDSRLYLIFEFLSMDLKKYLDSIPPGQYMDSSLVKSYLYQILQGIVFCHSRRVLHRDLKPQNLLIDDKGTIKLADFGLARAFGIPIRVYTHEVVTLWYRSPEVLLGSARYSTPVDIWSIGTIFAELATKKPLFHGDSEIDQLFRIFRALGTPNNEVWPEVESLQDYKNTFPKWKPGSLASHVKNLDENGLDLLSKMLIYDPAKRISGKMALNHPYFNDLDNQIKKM
UniProt Q6P2M8, sequence (whole entry, looked up): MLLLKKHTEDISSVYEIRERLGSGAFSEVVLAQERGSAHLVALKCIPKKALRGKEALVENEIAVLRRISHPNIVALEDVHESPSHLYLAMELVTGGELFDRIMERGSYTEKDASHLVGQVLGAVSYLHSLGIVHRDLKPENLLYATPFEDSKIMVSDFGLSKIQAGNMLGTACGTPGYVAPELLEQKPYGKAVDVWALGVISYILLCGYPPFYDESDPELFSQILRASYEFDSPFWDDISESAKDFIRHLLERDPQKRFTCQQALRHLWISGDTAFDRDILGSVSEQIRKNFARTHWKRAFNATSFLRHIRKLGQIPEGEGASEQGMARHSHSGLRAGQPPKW
UniProt Q02750, sequence (whole entry, looked up): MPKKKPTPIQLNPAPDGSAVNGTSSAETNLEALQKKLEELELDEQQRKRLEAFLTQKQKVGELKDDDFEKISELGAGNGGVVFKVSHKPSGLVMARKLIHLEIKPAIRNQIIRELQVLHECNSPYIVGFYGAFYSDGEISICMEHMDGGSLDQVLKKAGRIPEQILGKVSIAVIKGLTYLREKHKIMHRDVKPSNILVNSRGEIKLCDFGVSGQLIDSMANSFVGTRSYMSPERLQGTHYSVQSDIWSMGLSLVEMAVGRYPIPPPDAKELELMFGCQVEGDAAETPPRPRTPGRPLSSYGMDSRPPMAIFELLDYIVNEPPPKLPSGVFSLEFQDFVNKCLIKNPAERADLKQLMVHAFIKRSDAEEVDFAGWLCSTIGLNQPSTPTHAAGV
UniProt P31751, sequence (whole entry, looked up): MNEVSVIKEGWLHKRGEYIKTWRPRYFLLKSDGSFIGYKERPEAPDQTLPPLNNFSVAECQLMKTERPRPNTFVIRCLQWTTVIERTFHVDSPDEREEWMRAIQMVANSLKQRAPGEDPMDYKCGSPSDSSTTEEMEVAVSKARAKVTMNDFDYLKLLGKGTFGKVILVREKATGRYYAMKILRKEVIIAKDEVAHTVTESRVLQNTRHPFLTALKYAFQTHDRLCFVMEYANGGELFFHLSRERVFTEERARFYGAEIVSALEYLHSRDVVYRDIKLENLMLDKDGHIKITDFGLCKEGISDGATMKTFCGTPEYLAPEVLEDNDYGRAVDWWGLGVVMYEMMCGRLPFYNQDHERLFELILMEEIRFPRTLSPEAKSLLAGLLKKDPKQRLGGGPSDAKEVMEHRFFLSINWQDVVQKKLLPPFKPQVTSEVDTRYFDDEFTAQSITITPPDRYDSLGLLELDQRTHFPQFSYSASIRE
UniProt Q9Y5S2, sequence (whole entry, looked up): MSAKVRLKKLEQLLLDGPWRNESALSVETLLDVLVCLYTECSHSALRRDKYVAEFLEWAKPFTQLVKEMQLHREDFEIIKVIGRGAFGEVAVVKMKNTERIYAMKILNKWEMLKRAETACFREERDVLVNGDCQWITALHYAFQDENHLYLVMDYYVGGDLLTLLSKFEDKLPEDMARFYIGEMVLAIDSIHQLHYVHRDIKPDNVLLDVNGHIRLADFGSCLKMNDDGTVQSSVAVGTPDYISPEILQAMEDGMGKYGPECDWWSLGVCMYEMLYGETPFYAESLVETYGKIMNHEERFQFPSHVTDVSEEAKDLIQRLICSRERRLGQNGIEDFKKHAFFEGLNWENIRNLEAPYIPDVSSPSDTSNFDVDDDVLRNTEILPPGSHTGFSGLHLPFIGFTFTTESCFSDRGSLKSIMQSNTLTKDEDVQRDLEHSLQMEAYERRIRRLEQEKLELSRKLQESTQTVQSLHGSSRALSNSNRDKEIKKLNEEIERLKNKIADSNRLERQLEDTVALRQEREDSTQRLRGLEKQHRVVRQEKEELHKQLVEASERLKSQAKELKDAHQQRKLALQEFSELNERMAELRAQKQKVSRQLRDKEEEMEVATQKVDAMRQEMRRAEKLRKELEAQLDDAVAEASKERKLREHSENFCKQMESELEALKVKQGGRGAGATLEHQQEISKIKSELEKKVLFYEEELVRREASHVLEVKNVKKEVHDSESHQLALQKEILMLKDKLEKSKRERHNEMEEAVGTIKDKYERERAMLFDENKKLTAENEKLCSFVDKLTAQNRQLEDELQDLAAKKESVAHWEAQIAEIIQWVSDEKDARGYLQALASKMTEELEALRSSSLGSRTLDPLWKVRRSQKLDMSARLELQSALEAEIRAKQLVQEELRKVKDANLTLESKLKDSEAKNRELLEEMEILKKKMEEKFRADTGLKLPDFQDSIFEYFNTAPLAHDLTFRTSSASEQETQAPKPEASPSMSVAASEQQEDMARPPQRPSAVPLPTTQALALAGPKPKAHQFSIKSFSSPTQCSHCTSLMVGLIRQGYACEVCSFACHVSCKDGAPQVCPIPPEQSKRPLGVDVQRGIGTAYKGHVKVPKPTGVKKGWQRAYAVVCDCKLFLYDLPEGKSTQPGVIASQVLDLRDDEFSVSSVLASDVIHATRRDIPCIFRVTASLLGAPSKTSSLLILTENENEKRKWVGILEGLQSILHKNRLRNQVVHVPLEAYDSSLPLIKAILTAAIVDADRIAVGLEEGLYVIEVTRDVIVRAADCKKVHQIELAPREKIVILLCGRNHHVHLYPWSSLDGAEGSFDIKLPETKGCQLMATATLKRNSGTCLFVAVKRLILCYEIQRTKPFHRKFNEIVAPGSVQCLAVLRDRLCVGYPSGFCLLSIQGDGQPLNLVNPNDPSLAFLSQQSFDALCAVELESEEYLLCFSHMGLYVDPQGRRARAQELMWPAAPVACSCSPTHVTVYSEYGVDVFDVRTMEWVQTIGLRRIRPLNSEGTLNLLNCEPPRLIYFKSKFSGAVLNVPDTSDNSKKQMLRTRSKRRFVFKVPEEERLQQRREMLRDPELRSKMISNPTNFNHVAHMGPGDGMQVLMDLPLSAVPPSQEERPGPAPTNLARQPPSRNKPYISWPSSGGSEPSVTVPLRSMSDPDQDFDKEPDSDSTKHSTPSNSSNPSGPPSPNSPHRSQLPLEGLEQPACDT

Block 1 — SMILES: Oc1ccc(Nc2nc(-c3ccc(Cl)cc3)cs2)cc1; read-out: enzyme activity; action: inhibitor; concentration: 0.5 µM; relative to: control
Misshapen-like kinase 1 (MINK1, Homo sapiens, UniProt Q8N4C8) — remaining activity: 103%.
It gave 94.1% for remaining activity (Discoidin domain-containing receptor 2 (DDR2, Homo sapiens, UniProt Q16832)).
The remaining activity was 102% (Cyclin-dependent kinase 9, with cyclin K (CDK9, Homo sapiens, UniProt P50750)).
The remaining activity was 98.5% (Serine/threonine-protein kinase DCLK2 (DCLK2, Homo sapiens, UniProt Q8N568)).
The remaining activity was 106% (Mitogen-activated protein kinase 1 (MAPK1, Homo sapiens, UniProt P28482)).
The remaining activity was 108% (Serine/threonine-protein kinase MRCK beta (CDC42BPB, Homo sapiens, UniProt Q9Y5S2)).
The remaining activity was 96.4% (RAC-beta serine/threonine-protein kinase (AKT2, Homo sapiens, UniProt P31751)).
For Serine/threonine-protein kinase PLK3 (PLK3, Homo sapiens, UniProt Q9H4B4): remaining activity read 97.4%.
For Rho-associated protein kinase 1 (ROCK1, Homo sapiens, UniProt Q13464): remaining activity read 103%.
It gave 99.7% for remaining activity (Calcium/calmodulin-dependent protein kinase type IV (CAMK4, Homo sapiens, UniProt Q16566)).
It gave 91.2% for remaining activity (Cyclin-dependent kinase 1, with cyclin A (CDK1, Homo sapiens, UniProt P06493)).
The remaining activity was 90.7% (Dual specificity mitogen-activated protein kinase kinase 1 (MAP2K1, Homo sapiens, UniProt Q02750)).
For Calcium/calmodulin-dependent protein kinase type 1B (PNCK, Homo sapiens, UniProt Q6P2M8): remaining activity read 100%.
The remaining activity was 121% (Serine/threonine-protein kinase tousled-like 2 (TLK2, Homo sapiens, UniProt Q86UE8)).

Block 2 — read-out: kinase activity
SMILES: COc1cc(C(=O)N2CCC(N3CCN(C)CC3)CC2)ccc1Nc1ncc2c(n1)N(C)c1ccccc1C(=O)N2C
For CK2; 1 µM: remaining activity read 71 ± 6%.
It gave 99 ± 2% for remaining activity (SRC; 10 µM).
It gave 89 ± 4% for remaining activity (MARK1; 1 µM).
It gave 104 ± 6% for remaining activity (ERK8; 10 µM).
IR; 10 µM — remaining activity: 103 ± 3%.

Block 3 — cell line: mouse MPNST tumor cells; technique: high-content nuclear imaging; refers to: cell number; concentration: 10 µM; time: 12 h; setting: mean of 2 replicates; relative to: plate mean; direction: higher = more cells
The nuclei count of `CCN1CCc2nc(N)oc2CC1` is reported as 0.704 z-score.
With `Nc1nc(=O)c2c([nH]1)NC[C@@H](CNc1ccc(C(=O)N[C@@H](CCC(=O)O)C(=O)O)cc1)N2C=O` the nuclei count was -0.0273 z-score.
For `NC(=O)N[C@@H](CCC(=O)O)C(=O)O`, the nuclei count was 1.57 z-score.
`COc1cc2ncn(-c3cc(OCc4ccccc4C(F)(F)F)c(C(N)=O)s3)c2cc1OC` gave a nuclei count of -2.39 z-score.
For `Nc1nc(NCCc2ccc(O)cc2)nc2nc(-c3ccco3)nn12`, the nuclei count was 2.9 z-score.
For `CCCCCCN(CCCCCC)C(=O)Cc1c(-c2ccc(F)cc2)[nH]c2ccccc12`, the nuclei count was 0.915 z-score.

Block 4 — technique: competition with immobilised ligand; concentration: 1 µM
Compound: CCC(=O)N[C@@H]1CC[C@H](C(=O)N(C)c2ccc(-c3nc4ccccc4o3)cc2)C1
For Serine/threonine-protein kinase pim-1 (PIM1, Homo sapiens, UniProt P11309); cell-free assay: remaining binding read 100%.
The remaining binding was 100% (cAMP-dependent protein kinase catalytic subunit alpha (PRKACA, Homo sapiens, UniProt P17612); cell-free assay).
The remaining binding was 78% (Mitogen-activated protein kinase kinase kinase 10 (MAP3K10, Homo sapiens, UniProt Q02779); cell-free assay).
It gave 84% for remaining binding (Tyrosine-protein kinase Srms (SRMS, Homo sapiens, UniProt Q9H3Y6); cell-free assay).
For Cyclin-dependent kinase-like 1 (CDKL1, Homo sapiens, UniProt Q00532); cell-free assay: remaining binding read 90%.
For Tyrosine-protein kinase ABL1, phosphorylated (ABL1, Homo sapiens, UniProt P00519, F317L); cell-free assay: remaining binding read 86%.
The remaining binding was 77% (Tyrosine-protein kinase TXK (TXK, Homo sapiens, UniProt P42681); binding).
